Measurements gathered from unrelated publications.
Every numbered part comes from another study and shows a few of its results, in no order. Several values in a cell are separate wells, animals, samples, runs or records.

Sample 1
Target: Centromere-binding protein 1, full length, His-tagged (CBF1, Saccharomyces cerevisiae, UniProt P17106, residues 1-351)
Sequence of UniProt P17106 (whole entry, looked up): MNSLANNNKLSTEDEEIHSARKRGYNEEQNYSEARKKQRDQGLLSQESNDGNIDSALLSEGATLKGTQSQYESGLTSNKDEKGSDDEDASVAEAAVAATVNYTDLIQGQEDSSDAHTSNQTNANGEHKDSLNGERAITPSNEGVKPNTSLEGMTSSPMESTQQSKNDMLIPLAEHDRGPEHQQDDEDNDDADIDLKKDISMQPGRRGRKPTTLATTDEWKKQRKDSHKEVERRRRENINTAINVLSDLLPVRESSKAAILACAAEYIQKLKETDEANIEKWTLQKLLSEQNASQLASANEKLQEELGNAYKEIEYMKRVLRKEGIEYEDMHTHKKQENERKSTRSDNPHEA
Technique: competition protein-binding microarray
Molecule type: double-stranded DNA, one strand shown
Matrix: in vitro
Tested at: 2 µM
Setting: whole 60-bp probe, lowest competitor level
Added: Pho4 competitor, 0.05 µM
Reading: higher = stronger binding
Endpoint: fluorescence intensity
Oligonucleotide = AAATGAACTGCCAATAACATGCAAGAATGAAGACGGGTCTTGATTCGCTTGACGCTGCTG; result = 60.3 a.u.
Oligonucleotide = ATGGAGTTAATTCACCACGTTACTAAATAAGAGATTGTCTTGATTCGCTTGACGCTGCTG; result = 240 a.u.
Oligonucleotide = GTAGTTATGGAAGTGCCCGTGGACCATGCCTTCTTTGTCTTGATTCGCTTGACGCTGCTG; result = 66 a.u.
Oligonucleotide = AAATTACTAAGTTGTCACTGTACTTACCCCGTATGAGTCTTGATTCGCTTGACGCTGCTG; result = 84.1 a.u.

Sample 2
Target: Sal-like protein 4, full length isoform B (SALL4, Homo sapiens, UniProt Q9UJQ4-2, residues 1-616)
Technique: universal PBM
Molecule type: double-stranded DNA, one strand shown
Matrix: in vitro
Tested at: not given
Setting: 8-mer, flanks averaged, mean of replicates
Reading: higher = stronger binding
Endpoint: E-score
Residues (chain): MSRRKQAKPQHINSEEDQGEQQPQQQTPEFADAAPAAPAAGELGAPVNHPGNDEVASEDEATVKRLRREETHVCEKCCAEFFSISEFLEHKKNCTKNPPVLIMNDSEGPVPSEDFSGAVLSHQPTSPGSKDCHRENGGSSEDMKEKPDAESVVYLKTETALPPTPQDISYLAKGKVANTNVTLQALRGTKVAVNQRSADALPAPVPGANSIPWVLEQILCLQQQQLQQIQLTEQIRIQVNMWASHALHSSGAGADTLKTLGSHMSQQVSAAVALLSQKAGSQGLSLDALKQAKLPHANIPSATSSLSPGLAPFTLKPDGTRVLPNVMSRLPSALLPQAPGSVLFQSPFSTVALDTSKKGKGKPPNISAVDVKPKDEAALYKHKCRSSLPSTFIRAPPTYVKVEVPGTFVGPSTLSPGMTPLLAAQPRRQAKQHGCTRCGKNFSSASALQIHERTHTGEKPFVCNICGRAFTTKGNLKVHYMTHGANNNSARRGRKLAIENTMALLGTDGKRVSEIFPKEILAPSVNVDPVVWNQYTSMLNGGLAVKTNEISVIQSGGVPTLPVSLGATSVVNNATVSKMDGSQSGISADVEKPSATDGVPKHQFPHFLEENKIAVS
Oligonucleotide = CGTGGGTC; result = -0.18
Oligonucleotide = AGTACACT; result = 0.0503
Oligonucleotide = AACGTTGA; result = 0.0723
Oligonucleotide = CGACTACC; result = -0.231
Oligonucleotide = GCCTCCAC; result = -0.229

Sample 3
Target: Histone acetyltransferase KAT6A, winged helix 1, GST fusion (KAT6A, Homo sapiens, UniProt Q92794, residues 1-85)
Technique: protein binding microarray
Molecule type: double-stranded DNA, one strand shown
Matrix: in vitro
Tested at: not given
Setting: 8-mer, flanks averaged, mean of 2 arrays, mostly near background
Reference: not given
Reading: higher = stronger binding
Endpoint: E-score
Target sequence (chain): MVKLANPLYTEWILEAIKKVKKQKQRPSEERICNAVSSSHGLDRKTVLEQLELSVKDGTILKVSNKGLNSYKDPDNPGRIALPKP
Oligonucleotide = GTCGCTTA; result = 0.121
Oligonucleotide = CGCGTGAC; result = 0.314
Oligonucleotide = CGGATCAG; result = 0.0149
Oligonucleotide = CCGTCACG; result = 0.373
Oligonucleotide = ATCTAGAA; result = -0.216
Oligonucleotide = CAAGGTGC; result = 0.029

Other studies, line by line
Substance = PhoQ, residues 284 288 289 292 302 303 TLSLKA; target = PhoP, residues 12 14 15 18 19 LWHCS (Escherichia coli, UniProt P23836); assay = Sort-seq, refers to: YFP reporter; test system = E. coli; setting = PhoQ-PhoP variant library, added: 10 µM Mg2+; how to read = reference: high Mg2+ state, higher = stronger signaling; endpoint = fold induction; result = 1.17 and 0.939

A few entries again (sample 3):
Oligonucleotide = CGCGTGAC; result = 0.314
